Results collected from several papers.
Numbers after ± are the reported error.
Organism: Salmonella typhimurium

SMILES	test	test system	conditions	scale	endpoint	result
COCCN(CCOC)N=O	mutagenicity, Ames plate incorporation	TA1537	2500 µg/plate, 3 d, without S9, methanol		revertant colonies per plate	11.3 ± 3
N#C[C@@]1(n2ccc(N)nc2=O)O[C@H](CO)[C@@H](O)[C@H]1O		TA100	1.2 µM, without S9, unit not given	relative to: control	viability	106
CNC(=O)c1c(N(C)N=O)ncn1C	plate incorporation	TA1537, water	2500 µg/plate, without S9		revertant colonies per plate	9.7 ± 2
OC(CCN1CC=C(c2ccc(F)cc2)CC1)c1ccc(F)c2ccccc12 (stereo not drawn)	SOS/umu test	TA1535/pSK1002	0.004 mg/mL, 4 h, with S9, lower range		survival	91.1%
CN(N=O)c1ccc(F)cc1	mutagenicity, Ames plate incorporation	TA1537	500 µg/plate, 3 d, without S9, methanol		revertant colonies per plate	8
Fc1ccc(C2=CCNCC2)cc1	SOS/umu test	TA1535/pSK1002	0.008 mg/mL, 4 h, with S9, full range		survival	99.6%
CC(C)N(C)N=O	mutagenicity, Ames plate incorporation	TA1537	2500 µg/plate, 3 d, without S9, methanol		revertant colonies per plate	9 ± 5
O=[N+]([O-])c1ccc(N2CCN(CCC(O)c3ccc(F)cc3)CC2)c(C(F)(F)F)c1 (stereo not drawn)	genotoxicity, SOS/umu test	TA1535/pSK1002	0.004 mg/mL, 4 h, with S9, full range		induction factor	1.1
Cc1cc(C(=O)NC(C)(C)COc2cccc3c2C(N)=NS(=O)(=O)N3)cc(C)n1	Ames test, initial	TA100	1.50 µg/plate, with: rat liver S9	relative to: solvent control	revertant ratio	0.9
COc1cccc(-c2n[nH]c(SCc3ccccn3)n2)c1OC	Ames test, preincubation	TA100	0.13 mg/plate, without S9		revertant colonies per plate	128
CC(=O)N1CCC(C(=O)N2CCN3C(=O)c4cc(-c5ccccc5)ccc4NC(=O)C3C2)CC1 (stereo not drawn)		TA98	1.58 µg/plate	relative to: vehicle	fold increase in revertants	1.4
O=[N+]([O-])c1ccc(N2CCC(NCCC(O)c3ccc(F)c4ccccc34)CC2)c(C(F)(F)F)c1 (stereo not drawn)	genotoxicity, SOS/umu test	TA1535/pSK1002	0.016 mg/mL, 4 h, without S9, full range		induction factor	0.42

Repeated from above:
SMILES	test	test system	conditions	scale	endpoint	result
Fc1ccc(C2=CCNCC2)cc1	SOS/umu test	TA1535/pSK1002	0.008 mg/mL, 4 h, with S9, full range		survival	99.6%
